# Measured values collected from several papers.
# ± marks the error that the study gave.
# HTR1A: 5-hydroxytryptamine receptor 1A (HTR1A, Homo sapiens, UniProt P08908)
# Sequence of UniProt O15379 (whole entry, looked up): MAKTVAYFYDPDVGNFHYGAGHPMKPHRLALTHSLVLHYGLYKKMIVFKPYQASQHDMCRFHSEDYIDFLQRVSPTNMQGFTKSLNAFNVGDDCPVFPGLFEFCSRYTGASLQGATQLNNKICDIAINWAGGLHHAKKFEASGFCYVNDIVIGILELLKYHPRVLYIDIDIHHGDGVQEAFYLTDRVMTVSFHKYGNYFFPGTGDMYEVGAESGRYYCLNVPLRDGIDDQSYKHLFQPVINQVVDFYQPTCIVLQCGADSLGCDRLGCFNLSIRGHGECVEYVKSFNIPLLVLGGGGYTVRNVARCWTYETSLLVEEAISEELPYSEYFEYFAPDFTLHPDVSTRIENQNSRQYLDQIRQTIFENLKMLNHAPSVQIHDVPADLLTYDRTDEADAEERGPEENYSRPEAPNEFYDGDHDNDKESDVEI
# Sequence of UniProt P07944 (whole entry, looked up): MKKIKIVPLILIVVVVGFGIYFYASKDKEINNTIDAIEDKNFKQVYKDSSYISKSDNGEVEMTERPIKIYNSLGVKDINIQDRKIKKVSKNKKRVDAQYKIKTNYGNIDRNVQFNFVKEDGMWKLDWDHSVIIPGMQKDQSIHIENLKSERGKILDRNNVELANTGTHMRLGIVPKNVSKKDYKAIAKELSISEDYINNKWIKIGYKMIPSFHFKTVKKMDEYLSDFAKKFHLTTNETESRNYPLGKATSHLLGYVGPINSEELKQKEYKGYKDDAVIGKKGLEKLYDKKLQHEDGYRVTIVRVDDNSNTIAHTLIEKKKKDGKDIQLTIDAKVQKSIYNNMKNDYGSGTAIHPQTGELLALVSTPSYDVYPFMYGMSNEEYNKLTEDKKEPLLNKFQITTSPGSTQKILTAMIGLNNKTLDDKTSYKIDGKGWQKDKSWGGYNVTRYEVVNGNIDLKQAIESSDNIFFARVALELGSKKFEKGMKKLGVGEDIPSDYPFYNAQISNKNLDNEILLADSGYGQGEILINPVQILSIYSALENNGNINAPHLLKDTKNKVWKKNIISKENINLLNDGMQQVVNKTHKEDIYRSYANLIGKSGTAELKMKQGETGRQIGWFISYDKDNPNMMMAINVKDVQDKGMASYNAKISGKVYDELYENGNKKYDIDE
# Sequence of UniProt P08473 (whole entry, looked up): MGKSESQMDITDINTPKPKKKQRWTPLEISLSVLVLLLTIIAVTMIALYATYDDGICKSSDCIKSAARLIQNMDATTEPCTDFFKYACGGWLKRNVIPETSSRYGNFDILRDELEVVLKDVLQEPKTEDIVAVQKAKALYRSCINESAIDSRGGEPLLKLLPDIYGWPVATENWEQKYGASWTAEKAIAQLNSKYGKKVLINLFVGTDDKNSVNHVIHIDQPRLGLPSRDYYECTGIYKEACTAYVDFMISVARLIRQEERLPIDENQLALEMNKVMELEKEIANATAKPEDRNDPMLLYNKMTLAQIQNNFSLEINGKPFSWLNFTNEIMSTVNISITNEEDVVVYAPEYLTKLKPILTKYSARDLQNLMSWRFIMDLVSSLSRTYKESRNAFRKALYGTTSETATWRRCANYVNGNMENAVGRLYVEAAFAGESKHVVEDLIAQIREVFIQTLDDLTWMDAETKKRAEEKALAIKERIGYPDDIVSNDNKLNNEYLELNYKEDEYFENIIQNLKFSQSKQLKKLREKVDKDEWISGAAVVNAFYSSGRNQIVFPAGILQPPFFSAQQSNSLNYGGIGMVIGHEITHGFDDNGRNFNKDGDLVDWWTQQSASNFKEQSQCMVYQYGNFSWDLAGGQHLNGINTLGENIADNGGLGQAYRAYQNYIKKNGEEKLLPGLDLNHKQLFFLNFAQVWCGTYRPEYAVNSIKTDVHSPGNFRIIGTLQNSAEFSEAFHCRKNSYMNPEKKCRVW
# Sequence of UniProt P51617 (whole entry, looked up): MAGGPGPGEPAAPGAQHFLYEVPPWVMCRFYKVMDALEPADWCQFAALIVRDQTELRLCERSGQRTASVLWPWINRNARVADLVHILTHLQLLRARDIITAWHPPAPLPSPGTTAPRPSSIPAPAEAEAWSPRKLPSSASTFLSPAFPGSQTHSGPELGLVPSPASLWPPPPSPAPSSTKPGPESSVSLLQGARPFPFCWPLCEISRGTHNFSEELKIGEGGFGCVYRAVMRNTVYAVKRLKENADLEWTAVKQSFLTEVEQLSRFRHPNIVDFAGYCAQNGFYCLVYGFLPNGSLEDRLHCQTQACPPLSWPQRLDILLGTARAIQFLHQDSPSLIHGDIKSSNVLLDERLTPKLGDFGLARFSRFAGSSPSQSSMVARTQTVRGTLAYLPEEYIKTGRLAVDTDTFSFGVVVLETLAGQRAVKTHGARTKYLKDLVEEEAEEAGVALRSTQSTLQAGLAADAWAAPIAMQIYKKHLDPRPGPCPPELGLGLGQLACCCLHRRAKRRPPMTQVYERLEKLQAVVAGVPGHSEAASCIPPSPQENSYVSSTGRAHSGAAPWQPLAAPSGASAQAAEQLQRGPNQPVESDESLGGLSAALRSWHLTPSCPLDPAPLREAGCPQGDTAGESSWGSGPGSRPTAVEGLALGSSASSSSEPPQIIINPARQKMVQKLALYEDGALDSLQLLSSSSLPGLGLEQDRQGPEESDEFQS
# Sequence of UniProt O08914 (whole entry, looked up): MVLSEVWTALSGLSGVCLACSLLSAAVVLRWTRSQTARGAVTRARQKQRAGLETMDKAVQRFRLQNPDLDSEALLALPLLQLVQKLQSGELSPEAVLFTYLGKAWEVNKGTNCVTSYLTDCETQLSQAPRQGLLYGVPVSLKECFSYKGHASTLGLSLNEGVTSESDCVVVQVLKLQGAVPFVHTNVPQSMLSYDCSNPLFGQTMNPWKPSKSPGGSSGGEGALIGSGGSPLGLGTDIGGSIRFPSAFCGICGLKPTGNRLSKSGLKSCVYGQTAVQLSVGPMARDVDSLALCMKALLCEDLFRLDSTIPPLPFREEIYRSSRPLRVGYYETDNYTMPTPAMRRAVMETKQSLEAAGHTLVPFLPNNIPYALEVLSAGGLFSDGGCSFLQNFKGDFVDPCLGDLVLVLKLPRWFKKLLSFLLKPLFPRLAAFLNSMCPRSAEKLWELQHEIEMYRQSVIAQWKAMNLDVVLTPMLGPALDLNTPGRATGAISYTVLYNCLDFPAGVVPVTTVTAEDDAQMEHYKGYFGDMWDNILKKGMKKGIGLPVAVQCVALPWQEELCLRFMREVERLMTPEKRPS
# Sequence of UniProt Q9NWZ3 (whole entry, looked up): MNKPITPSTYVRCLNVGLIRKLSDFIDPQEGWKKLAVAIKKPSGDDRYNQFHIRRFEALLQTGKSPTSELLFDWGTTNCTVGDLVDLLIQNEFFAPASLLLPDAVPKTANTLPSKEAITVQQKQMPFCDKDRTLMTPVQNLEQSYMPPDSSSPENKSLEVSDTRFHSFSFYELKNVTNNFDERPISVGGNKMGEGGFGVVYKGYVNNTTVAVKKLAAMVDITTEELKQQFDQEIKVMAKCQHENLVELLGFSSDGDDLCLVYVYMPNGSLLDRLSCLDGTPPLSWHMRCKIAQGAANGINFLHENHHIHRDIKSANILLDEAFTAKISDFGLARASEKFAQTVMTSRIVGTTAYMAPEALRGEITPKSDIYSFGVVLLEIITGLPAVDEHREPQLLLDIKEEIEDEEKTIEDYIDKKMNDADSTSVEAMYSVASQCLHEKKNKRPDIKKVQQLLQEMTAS
# Sequence of UniProt P29322 (whole entry, looked up): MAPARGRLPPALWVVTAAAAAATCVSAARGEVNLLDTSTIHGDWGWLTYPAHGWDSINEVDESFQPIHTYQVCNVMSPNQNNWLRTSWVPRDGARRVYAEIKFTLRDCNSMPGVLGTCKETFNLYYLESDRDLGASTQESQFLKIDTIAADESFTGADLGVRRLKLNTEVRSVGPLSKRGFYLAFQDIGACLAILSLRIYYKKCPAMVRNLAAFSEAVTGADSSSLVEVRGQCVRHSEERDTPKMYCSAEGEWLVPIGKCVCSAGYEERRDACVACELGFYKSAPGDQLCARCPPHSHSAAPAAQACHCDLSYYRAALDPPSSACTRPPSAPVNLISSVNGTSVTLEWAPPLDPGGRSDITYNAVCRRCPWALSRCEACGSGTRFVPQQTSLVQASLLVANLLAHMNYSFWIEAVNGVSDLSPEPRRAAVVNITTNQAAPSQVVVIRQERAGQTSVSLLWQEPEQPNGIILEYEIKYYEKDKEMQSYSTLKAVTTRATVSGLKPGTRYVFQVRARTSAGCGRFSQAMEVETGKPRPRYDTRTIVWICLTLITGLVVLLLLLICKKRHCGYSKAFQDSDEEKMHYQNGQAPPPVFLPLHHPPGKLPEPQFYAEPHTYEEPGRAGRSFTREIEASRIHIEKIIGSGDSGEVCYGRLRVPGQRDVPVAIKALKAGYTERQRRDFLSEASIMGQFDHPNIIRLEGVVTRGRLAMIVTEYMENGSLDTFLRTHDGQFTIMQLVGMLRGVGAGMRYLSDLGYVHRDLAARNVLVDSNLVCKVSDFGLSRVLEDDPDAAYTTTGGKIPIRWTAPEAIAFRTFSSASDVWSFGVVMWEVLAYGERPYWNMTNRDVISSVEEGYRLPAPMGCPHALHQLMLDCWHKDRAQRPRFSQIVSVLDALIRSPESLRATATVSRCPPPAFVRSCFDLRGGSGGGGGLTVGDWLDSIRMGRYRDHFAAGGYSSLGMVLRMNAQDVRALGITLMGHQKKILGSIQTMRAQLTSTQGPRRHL
# Sequence of UniProt P25105 (whole entry, looked up): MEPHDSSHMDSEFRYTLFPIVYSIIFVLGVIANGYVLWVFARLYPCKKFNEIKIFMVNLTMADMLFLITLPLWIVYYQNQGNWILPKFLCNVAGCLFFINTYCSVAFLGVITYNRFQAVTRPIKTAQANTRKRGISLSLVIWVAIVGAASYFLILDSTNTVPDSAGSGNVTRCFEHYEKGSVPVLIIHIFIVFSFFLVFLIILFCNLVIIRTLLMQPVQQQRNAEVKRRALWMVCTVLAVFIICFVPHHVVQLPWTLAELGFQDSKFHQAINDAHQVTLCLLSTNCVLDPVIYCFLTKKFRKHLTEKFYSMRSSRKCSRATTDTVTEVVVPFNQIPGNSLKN
SMILES,target or system,assay,system,conditions,how to read,measurement,result
Cc1nc2cccc(OCC(C)(C)C(=O)NC(C)C)c2c(N)c1C(=O)[O-].[Na+],Salmonella typhimurium,,TA1535,"0.80 mg per plate, without S9, plate incorporation",,revertant colonies per plate,14 ± 2
N[C@H](C(=O)N1CCCC1)C1CCN(c2nccc3c(-c4ncc(Cl)cc4Cl)cccc23)CC1,"Interleukin-1 receptor-associated kinase 4 (IRAK4, Homo sapiens, UniProt Q9NWZ3)","kinase activity, inhibitor",,"10 µM, with: ATP 1 mM",,inhibition,0.3%
O=C(O)c1ccccc1/C=N/Nc1nc(-c2ccccc2Cl)cs1,"Ephrin type-B receptor 4 (EPHB4, Homo sapiens, UniProt P54760)","enzyme activity, inhibitor",,1 µM,,inhibition,-2.68%
O=C1NC2(CC2)COc2ncc(F)cc2[C@H]2COCCN2c2ccn3ncc1c3n2,,,"Sprague-Dawley rat, male, serum","oral, 10 mg/kg/day, end of recovery, 4-week subacute toxicity",,serum hepatic lipase activity,3.4 ± 0.3 U/L
O=C(O)c1ccc(-c2nc(-c3ccccc3Cl)c3sccn23)cc1,HTR1A,binding,,10 µM,,inhibition,38%
CS(C)(=O)=Nc1ccc(-c2ccc(-c3nc4cc(O[C@@H]5CO[C@H]6[C@@H]5OC[C@H]6O)[nH]c4cc3F)cc2)cc1,"C-X-C chemokine receptor type 2 (CXCR2, Homo sapiens, UniProt P25025)","ligand displacement, radioligand",,10 µM,,inhibition,-6%
Cc1ccc(NC(=O)Nc2cccc(C(=O)N3CCC(C)CC3)c2)cc1,"Beta-lactam-inducible penicillin-binding protein (pbp, Staphylococcus aureus, UniProt P07944)","Bocillin-FL labelling, fluorescence polarization",,50 µM,,inhibition,no inhibition
CN(C)c1ncnc2c1ncn2[C@@H]1O[C@H](CO)[C@@H](NC(=O)[C@@H](N)CSC(c2ccccc2)c2ccccc2)[C@H]1O,"Neprilysin (MME, Homo sapiens, UniProt P08473)",enzyme activity,,concentration not given,,inhibition,inactive
Cc1sc2c(c1C)C(c1ccc(Cl)cc1)=NC(CC(=O)OC(C)(C)C)c1nnc(C)n1-2 (stereo not shown),"Beta-1 adrenergic receptor (ADRB1, Homo sapiens, UniProt P08588)","ligand displacement, radioligand",,1 µM,,remaining binding,99.2%
COc1ccccc1-c1n[nH]c2nc(N[C@H]3CC[C@H](NS(=O)(=O)CC(C)C)CC3)ncc12,,"bead binding, competition bead pull-down, item: LINJ.28.2600",Leishmania donovani extract,10 µM,relative to: vehicle,relative abundance,1.17
CCCCCCCCCCCCCCCCCC(=O)NC[C@H]1CC[C@H](C(=O)N[C@@H](CCC(=O)NCCCOCCOCCOCCCNC(=O)COCC(=O)N[C@@H](Cc2ccc(O)cc2)C(=O)NC(C)(Cc2ccccc2)C(=O)N[C@@H](CC(C)C)C(=O)N[C@@H](CCCC)C(=O)N[C@@H](CCCNC(=N)N)C(=O)N2CCC[C@H]2C(=O)N[C@@H](CCCNC(=N)NC)C(=O)N[C@@H](CC(N)=O)C(N)=O)C(=O)O)CC1 (stereo partly shown),"Neuromedin-U receptor 1 (NMUR1, Homo sapiens, UniProt Q9HB89)","antagonist, DiscoverX GPCR panel",,1 µM,,inhibition,88%
O=C(CN1CN(c2ccccc2)C2(CCN(C(=O)c3cnc4[nH]ncc4c3)CC2)C1=O)NCC(F)(F)F,"Tyrosine-protein kinase SYK (SYK, Homo sapiens, UniProt P43405)",inhibitor,,concentration not given,,inhibition,< 50%
O=C1NC(=O)c2c1c1cc(F)c[n+]3c1c1c2c2cc(O)ccc2[n]1[Ru-4]312([N]=C=S)[S+]3CC[S+]1CC[S+]2CC3 (stereo not shown),"Interleukin-1 receptor-associated kinase 1 (IRAK1, Homo sapiens, UniProt P51617)",enzyme activity,,"100 nM, human enzyme, with: 10 µM ATP",relative to: untreated,remaining activity,40%
CC(C)[C@H]1NC(=O)C[C@H]2/C=C/CCSSC[C@@H](NC1=O)C(=O)N[C@H](Cc1cccc3ccccc13)C(=O)NCC(=O)O2,"Mast/stem cell growth factor receptor Kit (KIT, Homo sapiens, UniProt P10721, V560G)","enzyme activity, inhibitor",,10 µM,,inhibition,-3.9%
C=CC(=O)Nc1cc(-c2nn(C3CCC(N4CCN(C(C)=O)CC4)CC3)c3ncnc(N)c23)ccc1Oc1ccccc1 (stereo not shown),"Mitogen-activated protein kinase kinase kinase 5 (MAP3K5, Homo sapiens, UniProt Q99683)","inhibitor, KiNativ profiling",biochemical,2 µM,,inhibition,5.1%
Cc1cc(C(=O)Nc2nc3cccc(C)c3n2[C@H]2CCCCN(C(=O)/C=C/CN(C)C)C2)ccn1,Trypanosoma brucei,propidium iodide flow cytometry,bloodstream form,"concentration not given, 24 h",,cells in S phase,16.4%
CN(C)[C@H]1C[C@@]23CC[C@@]4(O2)C(=CC[C@]2(C)[C@@H](c5ccc6ccncc6c5)CC[C@H]24)C=C3[C@@H](O)[C@@H]1O,"Protein-tyrosine kinase 2-beta (PTK2B, Homo sapiens, UniProt Q14289)","ATP probe labelling, inhibitor, KiNativ profiling",,1 µM,,inhibition,8.8%
O=C(O)CCn1c(=O)oc2cc(Cl)c(Cl)cc21,"Tryptophan 2,3-dioxygenase (TDO2, Homo sapiens, UniProt P48775)",,,100 µM,,inhibition,5%
CC(C)(C)C(=O)OCOP(=O)(OCOC(=O)C(C)(C)C)C1CCCN(O)C1=O (stereo not shown),HT-29,,,,,log GI50,-6.47 log M
CN[C@@H]1[C@H](O)[C@H](NC)[C@H]2O[C@]3(O)[C@H](O[C@@H]2[C@H]1O)O[C@H](C)C[C@H]3NC(=O)Cc1cc(Cl)ccn1,HTR1A,"ligand displacement, radioligand",,10 µM,,inhibition,1%
COc1ccccc1-c1n[nH]c2nc(NC3CCN(C(=O)Cc4ccc(F)cc4F)CC3)ncc12,,"bead binding, competition bead pull-down, item: LINJ.36.6760",Leishmania donovani axenic amastigote extract,10 µM,relative to: vehicle,relative abundance,0.75
O=C(CCCCCCC(=O)Nc1ccccc1)NO,"Histone deacetylase 3 (HDAC3, Homo sapiens, UniProt O15379)","enzyme activity, inhibitor",,1 µM,,inhibition,96.6%
C[C@H](NCc1ccc(-c2ccc(C(F)(F)F)cc2)cc1)C(N)=O,"L-type calcium channel benzothiazepine site, rat","binding, radioligand binding",biochemical,"1 µM, with: [3H]diltiazem 2.0 nM",,inhibition,-8%
CN(/N=C/c1ccccc1C(=O)O)c1nc(-c2ccccc2Cl)cs1,"Ephrin type-A receptor 8 (EPHA8, Homo sapiens, UniProt P29322)","enzyme activity, inhibitor",,1 µM,,inhibition,-10.8%
CC[C@H](C)[C@H](NC(=O)[C@H](CO)NC(=O)[C@H](Cc1ccc(O)cc1)NC(=O)[C@H](Cc1ccc(O)cc1)NC(=O)[C@H](CC(N)=O)NC(=O)CNC(=O)[C@H](CO)NC(=O)[C@H](Cc1ccc(O)cc1)NC(=O)[C@H](CO)NC(=O)[C@H](CO)NC(=O)[C@H](CC(N)=O)NC(=O)COCCOCCNC(=O)CN1CCN(CC(=O)O)CCN(CC(=O)O)CCN(CC(=O)O)CC1)C(=O)N[C@@H](CC(C)C)C(N)=O [copper-64 labelled],,dynamic PET,"KPC mouse Ptf1a-CreER tdTomato, pancreas","intravenous, 4.6 MBq/mouse, 7.5 min, 84 d after tamoxifen",,tissue uptake,12 %ID/mL
O=C(N1CCCCC1)n1ccnn1,"Fatty-acid amide hydrolase 1 (Faah, Mus musculus, UniProt O08914)","serine hydrolase activity, inhibitor, competitive gel-based ABPP",mouse T-cell proteome,"1 µM, 30 min, 37 °C",,inhibition,> 95%
CCC1CC(c2ccc(C(=O)O)cc2C)=NN1c1ccc(C#N)c(Cl)c1 (stereo not shown),"N-lysine methyltransferase SMYD2 (SMYD2, Homo sapiens, UniProt Q9NRG4)","enzyme activity, inhibitor",,10 µM,,inhibition,0%
COc1ccc(F)cc1S(=O)(=O)Nc1cnc2c(c1)C(=O)NCCO2,"Platelet-activating factor receptor (PTAFR, Homo sapiens, UniProt P25105)","ligand displacement, radioligand",,10 µM,,inhibition,-2%
